Results of several laboratories.
“And” joins repeats or separate records; there may be more than shown. ± marks the error that the study gave.

COC1OC(C)C(OS(=O)(=O)O)C(OC2OC(C)C(OS(=O)(=O)O)C(OC3OC(C)C(OS(=O)(=O)O)C(OC4OC(C)C(OS(=O)(=O)O)C(OC5OC(C)C(OS(=O)(=O)O)C(OC6OC(C)C(OS(=O)(=O)O)C(OS(=O)(=O)O)C6O)C5O)C4O)C3O)C2O)C1O (stereo not drawn)
APTT prolongation (human plasma; 128 µg/mL; relative to: control): 1.2 fold

NC[C@@H](C(=O)Nc1ccc(-c2cn[nH]c2)cc1)c1ccccc1
IOP (tonometry; NZW rabbit, magnetic bead-induced ocular hypertension; ocular, 0.03%, 0 h): 35.6 mmHg

Cc1cc(C(=O)N(C)CC2CCCN(CCc3ccc(F)cc3)C2)c(C)o1 (stereo not drawn)
translation activity (Trypanosoma cruzi; reporter mRNA translation, inhibitor, measured: Renilla luciferase mRNA; cell-free extract; concentration not given, test 2; relative to: positive over negative control): 121% and 102%

COC1OC(C)C(OC2OC(C)C(OS(=O)(=O)O)C(OC3OC(C)C(OC4OC(C)C(OS(=O)(=O)O)C(OC5OC(C)C(OC6OC(C)C(OS(=O)(=O)O)C(OC7OC(C)C(OC8OC(C)C(OS(=O)(=O)O)C(OC9OC(C)C(OC%10OC(C)C(OS(=O)(=O)O)C(OC%11OC(C)C(OS(=O)(=O)O)C(OS(=O)(=O)O)C%11O)C%10O)C(OS(=O)(=O)O)C9O)C8O)C(OS(=O)(=O)O)C7O)C6O)C(OS(=O)(=O)O)C5O)C4O)C(OS(=O)(=O)O)C3O)C2O)C(OS(=O)(=O)O)C1O (stereo not drawn)
APTT prolongation (human plasma; 128 µg/mL; relative to: control): 1.4 fold

C#CC(C)(C)C(=O)SCCOP1(=O)OCC2OC(n3cnc4c(N)ncnc43)CC2OP(=O)(OCCSC(=O)C(C)(C)C#C)OCC2OC(n3cnc4c(N)ncnc43)CC2O1 (stereo not drawn)
M1 macrophages (flow cytometry; mouse CT26 tumour model, tumour tissue; dose not given): 70%

COc1cc(O)ccc1CCC(c1ccc(O)cc1)c1cc2c(c(C)c1O)OC(c1ccc(O)cc1)CC2 (mixture of isomers)
arachidonic acid level (human blood; 10 µM, with: A23187): 105000 ± 16900 pg/mL

COc1ccc(S(=O)(=O)N2CCc3ccccc3C2)cc1N1CCN(C(=O)c2ccc(F)cc2C(F)(F)F)CC1
TH-immunoreactive cell count (CNN cell counting, measured: tyrosine hydroxylase; rat, 6-OHDA lesion model, substantia nigra pars compacta, lesioned side; 0.3 µg/24 h): 193 ± 42.5

CC(C)C[C@H](NC(=O)[C@H](Cc1ccccc1)NC(=O)[C@H](C)NC(=O)[C@@H](CS)NC(=O)CNC(=O)[C@H](N)CO)C(=O)N[C@@H](CO)C(=O)N[C@H](C(=O)N[C@@H](CCCCN)C(=O)N[C@@H](CCCCN)C(=O)N[C@@H](CCC(N)=O)C(=O)N[C@@H](Cc1ccccc1)C(=O)N[C@@H](CCC(=O)O)C(=O)N[C@@H](CCC(=O)O)C(=O)N[C@@H](CC(C)C)C(=O)N[C@H](C(=O)N[C@@H](CC(C)C)C(=O)NCC(=O)N[C@@H](CCC(=O)O)C(=O)N[C@@H](Cc1ccccc1)C(=O)N[C@@H](CC(C)C)C(=O)N[C@H](CCCCN)C(=O)N[C@H](CC(C)C)C(=O)N[C@H](CC(=O)O)C(=O)N[C@@H](CCCNC(=N)N)C(=O)N[C@H](CCCNC(=N)N)C(=O)N[C@@H](CCCNC(=N)N)C(=O)N[C@@H](CCCCN)C(=O)O)[C@@H](C)O)C(C)C
CD4 T cell level (immunofluorescence, immunoblot; mouse A549 xenograft, tumour; intratumoral or intravenous, dose not given): increased

Cc1c(Cc2ccccc2)c(NCCN(C)C)n2c(nc3ccccc32)c1C#N
translation activity (Trypanosoma cruzi; reporter mRNA translation, inhibitor, measured: Renilla luciferase mRNA; cell-free extract; concentration not given, test 2; relative to: positive over negative control): 106% and 130%

O=C(N[C@@H](Cc1ccc(OCCCCC2CCNCC2)cc1)C(=O)O)c1nc2ccccc2o1.O=C(O)C(F)(F)F
clot retraction velocity (human, platelet-rich plasma; 15 µM, with: thrombin): 0.00564 min⁻¹ and 0.0101 min⁻¹ and 0.00522 min⁻¹

COC1CN([C@H]2CC[C@H]([C@@]3(C)Oc4c(Cl)cc(C(=O)NCc5c(SC)cc(C)[nH]c5=O)c(C)c4O3)CC2)C1
log2 fold change (RNA-seq, measured: MEIS1; human, whole blood; dose not given, 24 h; relative to: pretreatment baseline): 3.7

COc1cc2c(NC3CCN(C(C)C)CC3)cc(N3CCOCC3)nc2cc1OCCCN1CCCC1
log2 fold change (TMT proteomics, measured: ENO1; 5xFAD mouse, hippocampus; dose not given; relative to: wild type): 0.0363

Cc1ccc([N+](=O)[O-])cc1S(=O)(=O)N(C)/N=C/c1cnc2ccc(Br)cn12
PI-stained cells (peripheral blood mononuclear cells, Sézary syndrome patients; 200 nM): 35.2%

CC(=O)[O-].O.O.O.O.[Mn+2].[O-]c1ccc(Br)cc1C=NCCN1CCOCC1
inhibition (superoxide scavenging; 200 µM): 39.3%

CCCCCCCCCCCCCCCC(=O)OCC(CSC[C@H](N)C(=O)N[C@@H](CO)C(=O)N[C@@H](CCCCN)C(=O)N[C@@H](CCCCN)C(=O)N[C@@H](CCCCN)C(=O)N[C@@H](CCCCN)C(=O)NCCCCCC(=O)N[C@@H](CCCCN)C(=O)N[C@@H](CC(C)C)C(=O)N[C@H](C(=O)N[C@@H](Cc1ccccc1)C(=O)N[C@@H](Cc1ccccc1)C(=O)N[C@@H](Cc1ccc2ccccc2c1)C(=O)O)C(C)C)OC(=O)CCCCCCCCCCCCCCC (stereo partly drawn)
GFAP level (APP/PS1 mouse, hippocampus; local injection, dose not given, unit not given; relative to: injected over adjacent side): 0.948 and 3.89 and 1.14 and 0.946 and 4.04

For quick reference, copied from above:
COc1ccc(S(=O)(=O)N2CCc3ccccc3C2)cc1N1CCN(C(=O)c2ccc(F)cc2C(F)(F)F)CC1
TH-immunoreactive cell count (CNN cell counting, measured: tyrosine hydroxylase; rat, 6-OHDA lesion model, substantia nigra pars compacta, lesioned side; 0.3 µg/24 h): 193 ± 42.5
